Assay results from different studies.
Protocols differ between the studies behind these lines. ± marks the error that the study gave.

For `CCCC[C@H](NC(C)=O)C(=O)N[C@H]1CC(=O)NCCCC[C@@H](C(=O)N[C@@H](C(=O)N2CCC[C@@H]2C(N)=O)C(C)C)NC(=O)[C@H](Cc2c[nH]c3ccccc23)NC(=O)[C@H](CCCN=C(N)N)NC(=O)[C@@H](Cc2ccc3ccccc3c2)NC(=O)[C@@H]2CCCN2C1=O`, the Cmax was 4900 ± 300 ng/mL (Beagle dog, both sexes, plasma; subcutaneous, once daily, 2.25 mg/kg, day 1).
For `COCC1CN(C2CCN(c3cc(OC)c(Nc4ncc(Br)c(Nc5ccc6c(c5P(C)(C)=O)OCCO6)n4)cc3C)CC2)C1`, “treatment-related neutrophil count increase” read 11.1% (human; oral, 10 to 240 mg once daily, all grades).
For `CCCC(CCC(=O)O)NC(=O)c1ccc2c(c1)OCO2` (centres unmarked), “metabolite peak area” read 2.04% (LC-MS; Sprague-Dawley rats, pooled sexes, plasma; oral, 200 mg/kg of parent drug, 1 h; baseline: total peak area).
For `COc1cc(OC)cc(C2=C3C(C)=C(I)C(/C=C/c4c[nH]c5ccccc45)=[N+]3[B-](F)(F)n3c(/C=C/c4c[nH]c5ccccc45)c(I)c(C)c32)c1`, the Stokes shift was 785 cm⁻¹ (DMSO).
`Cn1c(=O)oc2ccc(-c3ccc(CC(C#N)NC(=O)C4CNCCCO4)c(F)c3)cc21` (centres unmarked): “WBC count decreased incidence” 11.1% (human; oral, 40 mg once daily, TEAE, multiple ascending dose).
With `COc1cc2c(cc1OC)CN(CCCCn1ccc3cc(OCC[18F])ccc31)C2` the uptake was 15.8 ± 1.4 %ID/organ (ICR mice, male, small intestine; intravenous, 30 min).
With `O=C(O)CCC(NP(=O)(O)OCCC[C@@H](NC(=O)CC[C@H](NC(=O)CCCCCNC(=O)c1ccc([18F])cc1)C(=O)O)C(=O)O)C(=O)O` (some centres unmarked) the tissue uptake was 0.004 ± 0.001 %ID/g (mouse, CWR22Rv1 xenograft, blood; dose not given, 4 h, blocking agent pre-dosed).
`C=CC(=O)Nc1cc(Nc2nccc(-c3cn(C4CC4)c4ccccc34)n2)c(OC)cc1N(C)CCNC` — result for “share of radioactivity”: 8.16% (LC-RAM/HRMS; human male, plasma; oral, 110 mg, 6 h; baseline: total radioactivity).
Under “mean arterial pressure”, `CCCC[C@H](NC(=O)[C@H](CC(C)C)N(C)C(=O)CNC(=O)[C@@H](NC(=O)[C@H](Cc1ccccc1)NC(=O)[C@H](CCCCN)NC(=O)[C@@H](N)CC(=O)O)C(C)C)C(N)=O` is recorded as -1.67 ± 2.95% (anesthetized Gottingen minipig; subcutaneous, 3 µg/kg; baseline: baseline).
Under “apparent clearance (CL/F)”, `CCc1cc(Nc2nc(-c3ccc(-n4cnc(C)c4)c(F)c3)cs2)c(C)cc1C` is recorded as 27000 mL/h (human, plasma; oral, 400 mg once daily, day 14, multiple dose, geometric mean).
Under “AUC(0-t) share of total radioactivity”, `CC(O)c1nc(-c2ccc3c(c2)CCC3NC(=O)c2cnn(C)c2)no1` (centres unmarked) is recorded as 36.4% (human, pooled plasma; oral, 20 mg, 2 to 264 h; baseline: total radioactivity AUC).
`[11CH3]c1ccc2nc(C3CCC3)n(-c3ccc4[nH]ncc4c3)c2n1`: “absorbed radiation dose” 3.8 µSv/MBq (standard human adult, adrenals).
With `COc1ccnc(C[S+]([O-])c2nc3cc(-n4cccc4)ccc3[nH]2)c1C` (centres unmarked) the CL/F was 418 ± 170 mL/min/kg (male Sprague Dawley rats, plasma; oral, 10 mg/kg ilaprazole racemate).
`O=C(CCc1ccc(CNC(C(=O)OC2CCCC2)C2CCCCC2)cn1)NO` (centres unmarked) has an AUC(0-t) of 186 ng·h/mL (human, plasma; oral, 50 mg single dose, geometric mean).
Under “deviation from nominal”, `COC(=O)C(c1ccccc1Cl)N1CCC(SCC(=O)c2cccc(OC)c2)C(=CC(=O)O)C1` (mixture of isomers) is recorded as 7% (HPLC-MS/MS; feline EDTA plasma; 100 ng/mL, 72 h, -80 °C, storage stability).
The fluorescence lifetime of `COc1ccc2cc(-c3ccc(-c4ccc(C)cn4)nc3)oc2c1` is reported as 1.8 ns (TCSPC; DMSO).
`CC(C)(O)c1ncc([S@](N)(=O)=NC(=O)Nc2c3c(cc4c2CCC4)CCC3)s1` gave a dose-normalised Cmax of 112 ng/mL/mg (healthy human volunteers, plasma; oral, 100 mg single dose, fasted, spray-dried dispersion).
`CC(C)C[C@@H]1NC(=O)[C@@H]2CCCN2C(=O)[C@H](CO)NC(=O)[C@@H](NC(=O)[C@H](Cc2c[nH]cn2)NC(=O)[C@H](CO)NC(=O)[C@H](Cc2ccc(O)cc2)NC(=O)[C@H](CC(=O)O)NC(=O)CNC(=O)CN2CCN(CC(=O)O)CCN(CC(=O)O)CCN(CC(=O)O)CC2)CSSC[C@@H](C(=O)N[C@H](C(=O)N[C@@H](Cc2ccc(O)cc2)C(=O)N2CCC[C@H]2C(=O)N[C@@H](CC(=O)O)C(=O)N2CCC[C@H]2C(=O)N[C@@H](CCC(=O)O)C(=O)NCC(=O)NCC(=O)NCC(N)=O)[C@@H](C)O)NC(=O)[C@H](CCCCN)NC(=O)[C@H](Cc2c[nH]c3ccccc23)NC(=O)[C@H](Cc2c[nH]c3ccccc23)NC(=O)[C@@H]2CCCN2C(=O)[C@H](Cc2ccc(O)cc2)NC(=O)[C@H](Cc2ccc(O)cc2)NC(=O)[C@H](CCCNC(=N)N)NC1=O` [gallium-68 labelled] gave an SUVmax of 0.58 ± 0.11 SUV (PET/CT; male NOD-SCID mice, heart; intravenous, 3.7 MBq, 90 min).
`C=CC(=O)Nc1cc(Nc2nccc(-c3cn(C4CC4)c4ccccc34)n2)c(OC)cc1NC` — result for “share of radioactivity”: 1.15% (radio-HPLC, co-eluting peaks pooled; human male, feces; oral, 110 mg, 0 to 240 h, sample holds 81.99% dose; baseline: sample radioactivity).
The measured concentration of `COC(=O)C(c1ccccc1Cl)N1CCC(SCC(=O)c2cccc(OC)c2)C(=CC(=O)O)C1` (centres unmarked) is reported as 50.1 ± 3.9 ng/mL (LC-MS/MS; extract in autosampler; 50 ng/mL, 24 h, 4 °C).
The tissue uptake of `O=C(O)C1CN(Cc2ccc(-c3noc(-c4ccc(OCC[18F])c(C(F)(F)F)c4)n3)cc2)C1` is reported as 0.051 ± 0.003 %ID/g (Sprague-Dawley rat, male, normal, fat; iv, 60 min).
Under “Qy absorption maximum”, `COCCOCCOCCOCCC(=O)NCc1cc(CNC(=O)CCOCCOCCOCCOC)cc(-c2cc3cc4nc(c(-c5ccc(CCC(=O)O)cc5)c5[nH]c(cc6nc(c(OC)c2[nH]3)CC6(C)C)cc5-c2cc(CNC(=O)CCOCCOCCOCCOC)cc(CNC(=O)CCOCCOCCOCCOC)c2)CC4(C)C)c1` is recorded as 726 nm (water with 5% DMF; room temperature).
`CCOc1ccc2c(c1)C(C)=CC(C)(C)N2c1cc(OCC)cc2c1NC(C)(C)C=C2C` gave a residue concentration of 6.6 ± 1.9 ng/g (LC-MS/MS; laying hens, liquid whole egg; oral, 50 mg/kg feed of ethoxyquin, 56 days).
With `CNC(=O)N[C@]1(C)CCC[C@@]2(C)C3CC[C@@]4(C)C[C@]3(CCC21)CC4=O` (single isomer, unassigned) the measured concentration was 371 ± 13.3 ng/mL (rat plasma; 400 ng/mL, 8 h, room temperature, short-term stability).
The half-life of `O=C1CCc2ccc(NS(=O)(=O)c3cccc(Oc4ccccc4)c3)cc2N1` is reported as 252 min (C57BL/6 mouse, plasma; oral, 3 mg/kg).
`CC12CC(c3ccc(S(C)(=O)=O)cc3)C3=C4CCC(=O)C=C4CCC3C1CCC2(O)C(F)(F)C(F)(F)F` (centres unmarked) — result for “apparent oral clearance”: 15.1 L/h (human, fasted, plasma; oral, 5 mg, [14C]-labelled, single dose, geometric mean).
With `O=C(O)[C@@H]1C[C@@H](O)CN1C(=O)[C@@H]1CCCN1` the pKa3 was greater than 12 (potentiometric titration; water; 25 °C, 0.15 mol/dm3 NaCl).
`CC(C)CCC(CCN)C(=O)N[C@H](C(=O)N[C@@H](CN)C(=O)N[C@H]1CCNC(=O)[C@H]([C@@H](C)O)NC(=O)[C@H](CCN)NC(=O)[C@H](CCN)NC(=O)[C@H](CC(C)C)NC(=O)[C@@H](Cc2ccccc2)NC(=O)[C@H](CCN)NC1=O)[C@@H](C)O` (some centres unmarked) has a tissue concentration of 331000 ng/g (CD-1 mouse male, kidney; subcutaneous, 17.2 mg/kg, 4 h).
`CCN(CC)c1ccc2c(-c3ccc(S(=O)(=O)NCCNC(=O)CN4CCN(CC(=O)[O-])CCN(CC(=O)O)CCN(CC(=O)[O-])CC4)cc3S(=O)(=O)[O-])c3ccc(=[N+](CC)CC)cc-3oc2c1.[64Cu+2]` — result for metabolic stability: “stable” (radio-HPLC; athymic nude mice, urine; 30 and 120 min post-injection).

Repeated from above:
Under “apparent clearance (CL/F)”, `CCc1cc(Nc2nc(-c3ccc(-n4cnc(C)c4)c(F)c3)cs2)c(C)cc1C` is recorded as 27000 mL/h (human, plasma; oral, 400 mg once daily, day 14, multiple dose, geometric mean).
Under “AUC(0-t) share of total radioactivity”, `CC(O)c1nc(-c2ccc3c(c2)CCC3NC(=O)c2cnn(C)c2)no1` (centres unmarked) is recorded as 36.4% (human, pooled plasma; oral, 20 mg, 2 to 264 h; baseline: total radioactivity AUC).
